{"data": "Experimental data from different studies", "note": "Compare with care: the assays were run in different laboratories. Numbers after ± are the reported error.", "UniProt P21554, sequence (whole entry, unmodified, looked up)": "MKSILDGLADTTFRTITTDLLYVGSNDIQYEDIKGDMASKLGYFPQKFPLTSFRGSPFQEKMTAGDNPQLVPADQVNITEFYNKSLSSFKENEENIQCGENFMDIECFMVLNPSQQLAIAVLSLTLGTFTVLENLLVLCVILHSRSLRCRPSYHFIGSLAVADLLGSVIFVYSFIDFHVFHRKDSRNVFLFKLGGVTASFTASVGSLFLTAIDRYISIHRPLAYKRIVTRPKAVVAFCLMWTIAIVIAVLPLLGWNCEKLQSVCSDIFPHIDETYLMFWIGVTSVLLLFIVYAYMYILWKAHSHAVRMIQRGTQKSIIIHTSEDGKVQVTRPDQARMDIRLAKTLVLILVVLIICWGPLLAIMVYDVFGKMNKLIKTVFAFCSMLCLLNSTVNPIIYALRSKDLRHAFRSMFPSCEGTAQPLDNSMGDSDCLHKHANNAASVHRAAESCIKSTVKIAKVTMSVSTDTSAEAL", "UniProt Q14790, sequence (whole entry, looked up)": "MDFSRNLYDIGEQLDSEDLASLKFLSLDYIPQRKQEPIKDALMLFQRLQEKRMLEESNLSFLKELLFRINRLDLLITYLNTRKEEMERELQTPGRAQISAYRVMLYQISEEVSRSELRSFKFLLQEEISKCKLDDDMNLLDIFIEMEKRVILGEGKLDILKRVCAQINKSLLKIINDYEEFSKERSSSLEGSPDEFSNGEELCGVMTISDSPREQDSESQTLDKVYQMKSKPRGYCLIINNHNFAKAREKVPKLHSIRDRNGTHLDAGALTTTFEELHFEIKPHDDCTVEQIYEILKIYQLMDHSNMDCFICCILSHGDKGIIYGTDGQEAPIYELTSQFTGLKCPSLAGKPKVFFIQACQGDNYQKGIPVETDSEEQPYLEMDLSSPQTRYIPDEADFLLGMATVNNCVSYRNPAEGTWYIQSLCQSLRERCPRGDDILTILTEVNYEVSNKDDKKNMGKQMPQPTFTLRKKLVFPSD", "UniProt Q01959, sequence (whole entry, unmodified, looked up)": "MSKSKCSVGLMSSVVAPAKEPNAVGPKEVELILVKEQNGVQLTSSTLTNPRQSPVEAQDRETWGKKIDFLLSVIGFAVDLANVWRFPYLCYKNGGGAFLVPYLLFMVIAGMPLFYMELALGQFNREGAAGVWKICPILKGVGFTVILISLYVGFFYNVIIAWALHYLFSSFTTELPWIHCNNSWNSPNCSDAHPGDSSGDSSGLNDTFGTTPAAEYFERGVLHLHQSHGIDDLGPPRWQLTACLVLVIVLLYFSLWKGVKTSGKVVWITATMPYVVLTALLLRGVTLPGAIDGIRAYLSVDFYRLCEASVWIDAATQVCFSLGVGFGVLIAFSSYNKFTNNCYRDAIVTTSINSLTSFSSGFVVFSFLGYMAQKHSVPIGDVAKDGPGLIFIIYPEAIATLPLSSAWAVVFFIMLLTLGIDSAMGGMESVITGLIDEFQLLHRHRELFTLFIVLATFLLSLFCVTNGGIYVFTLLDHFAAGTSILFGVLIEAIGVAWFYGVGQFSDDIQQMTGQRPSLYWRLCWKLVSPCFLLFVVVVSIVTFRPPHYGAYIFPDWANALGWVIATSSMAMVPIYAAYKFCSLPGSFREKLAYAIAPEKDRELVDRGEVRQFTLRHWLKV", "UniProt P41143, sequence (whole entry, unmodified, looked up)": "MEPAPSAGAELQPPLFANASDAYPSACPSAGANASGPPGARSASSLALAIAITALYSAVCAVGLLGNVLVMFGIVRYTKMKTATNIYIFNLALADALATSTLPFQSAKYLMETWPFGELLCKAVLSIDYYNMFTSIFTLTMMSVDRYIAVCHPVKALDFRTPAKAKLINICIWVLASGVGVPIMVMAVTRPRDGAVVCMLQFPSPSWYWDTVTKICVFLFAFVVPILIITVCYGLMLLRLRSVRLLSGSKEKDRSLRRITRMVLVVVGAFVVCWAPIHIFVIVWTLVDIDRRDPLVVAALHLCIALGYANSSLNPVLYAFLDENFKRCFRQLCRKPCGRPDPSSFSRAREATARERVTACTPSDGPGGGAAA", "UniProt P21917, sequence (whole entry, looked up)": "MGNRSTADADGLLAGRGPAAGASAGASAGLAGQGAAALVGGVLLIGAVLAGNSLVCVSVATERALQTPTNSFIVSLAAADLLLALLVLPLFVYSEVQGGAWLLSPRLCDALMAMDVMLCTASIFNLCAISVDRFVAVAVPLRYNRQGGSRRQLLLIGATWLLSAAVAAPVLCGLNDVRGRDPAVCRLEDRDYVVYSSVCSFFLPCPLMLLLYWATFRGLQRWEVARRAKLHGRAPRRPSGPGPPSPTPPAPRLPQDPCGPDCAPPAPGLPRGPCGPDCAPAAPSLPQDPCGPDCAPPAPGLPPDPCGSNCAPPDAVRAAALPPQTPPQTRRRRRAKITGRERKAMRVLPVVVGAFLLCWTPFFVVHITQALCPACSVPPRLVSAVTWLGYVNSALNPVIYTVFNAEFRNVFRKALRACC"}
{"Structure (SMILES)": "O=C1NC2(CC2)COc2ncc(F)cc2[C@H]2COCCN2c2ccn3ncc1c3n2", "system": "Sprague-Dawley rat, male, blood", "conditions": "oral, 5 mg/kg/day, 4 weeks, end of recovery, subacute toxicity", "quantity": "neutrophil percentage", "value": "11.6 ± 1.1%"}
{"Structure (SMILES)": "CCC[C@H](C(=O)c1ccccc1)N1CCCC1", "target or system": "Sodium-dependent dopamine transporter (SLC6A3, Homo sapiens, UniProt Q01959)", "test": "dopamine uptake, inhibitor", "system": "HEK293 transiently transfected", "conditions": "DAT F76Y mutant, added: [3H]dopamine", "quantity": "Ki", "value": "0.373 µM"}
{"Structure (SMILES)": "CC(C)CC(C(=O)N1CC2(CC1C#N)C(=O)Nc1ccccc12)N(C)C(=O)c1cc2c(F)cc(F)c(F)c2[nH]1 (stereo not shown)", "target or system": "Caspase-8 (CASP8, Homo sapiens, UniProt Q14790)", "test": "enzyme activity, inhibitor", "quantity": "IC50", "value": "22.5 µM"}
{"Structure (SMILES)": "Nc1ncnc2c1c(-c1ccc(Oc3ccccc3)cc1)nn2C1CCCC1", "target or system": "Proto-oncogene tyrosine-protein kinase Src (SRC, Gallus gallus, UniProt P00523, G530I/P529E/Q528E)", "test": "enzyme activity, inhibitor", "quantity": "Ki", "value": "< 0.02 µM"}
{"Structure (SMILES)": "Cc1ccc2c(C(C[N+](=O)[O-])c3cccs3)c(-c3ccccc3)[nH]c2c1 (stereo not shown)", "target or system": "Cannabinoid receptor 1 (CNR1, Homo sapiens, UniProt P21554, L165A)", "test": "β-arrestin recruitment, agonist, luciferase", "quantity": "EC50", "value": "0.18 µM"}
{"Structure (SMILES)": "CCN(CC)C(=O)[C@@H]1C=C2c3cccc4c3c(cn4C(=O)c3ccco3)C[C@H]2N(C)C1", "target or system": "D(4) dopamine receptor (DRD4, Homo sapiens, UniProt P21917)", "test": "ligand displacement, radioligand", "quantity": "Ki", "value": "2.27 µM"}
{"Structure (SMILES)": "COc1ccccc1C(C[N+](=O)[O-])c1c(-c2ccccc2)[nH]c2ccccc12 (stereo not shown)", "target or system": "Cannabinoid receptor 1 (CNR1, Homo sapiens, UniProt P21554, L252A)", "test": "G protein activation, agonist, BRET", "quantity": "EC50", "value": "> 1000 µM"}
{"Structure (SMILES)": "CCN(CC)C(=O)c1ccc(C(c2cccc(O)c2)N2CC(C)N(Cc3ccccc3)CC2C)cc1 (stereo not shown)", "target or system": "Delta-type opioid receptor (OPRD1, Homo sapiens, UniProt P41143, V281A)", "quantity": "Ki", "value": "0.0015 ± 0.00017 µM"}
{"Structure (SMILES)": "CCCCCn1cc(C(=O)c2ccc3ccccc3c2)c2ccccc21", "target or system": "Cannabinoid receptor 1 (CNR1, Homo sapiens, UniProt P21554, F177A)", "test": "G protein activation, agonist, BRET", "quantity": "EC50", "value": "0.055 µM"}
{"Structure (SMILES)": "O=[N+]([O-])CC(c1ccco1)c1c(-c2ccccc2)[nH]c2ccccc12 (stereo not shown)", "target or system": "Cannabinoid receptor 1 (CNR1, Homo sapiens, UniProt P21554, I245M)", "test": "G protein activation, agonist, BRET", "quantity": "EC50", "value": "0.26 µM"}
